Results from different studies.
Every numbered part comes from another study and shows a few of its results, in no order.

Series 1
Target: Histone acetyltransferase KAT6A, both winged helices, GST fusion (KAT6A, Homo sapiens, UniProt Q92794, residues 1-181)
Method: protein binding microarray
Form: double-stranded DNA, one strand shown
Medium: in vitro
Tested at: not given
Setting: 8-mer, flanks averaged, mean of 2 arrays, mostly near background
Reference: not given
Direction: higher = stronger binding
Residues (chain): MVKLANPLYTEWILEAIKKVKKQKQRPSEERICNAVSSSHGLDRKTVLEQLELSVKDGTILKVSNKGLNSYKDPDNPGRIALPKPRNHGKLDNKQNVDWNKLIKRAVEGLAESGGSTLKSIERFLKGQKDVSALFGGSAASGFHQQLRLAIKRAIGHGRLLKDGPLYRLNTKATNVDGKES
Sequence	E-score
ATACTAAA	-0.0253
ATTTGGGG	-0.18
AGGCTTGA	-0.31
GATTCTCA	-0.0762
CCACGCCC	0.0212
CGCAGGTA	0.0402
GGTCGCAA	0.143
CTAGGACC	-0.0801
ACACCACA	-0.0322
TAGCGGGA	0.168

Series 2
Target: RNA binding protein fox-1 homolog 2, RRM domain, GST-SBP tag (RBFOX2, Homo sapiens, UniProt O43251-10, residues 100-194)
Method: RNA Bind-n-Seq
Form: RNA
Medium: in vitro
Tested at: 365 nM
Setting: natural RNA segment, single round, ends assumed
Reference: no-protein control
Direction: higher = stronger binding
Constant ends, left off below: GGGAGUUCUACAGUCCGACGAUC … UGGAAUUCUCGGGUGCCAA
Construct (chain): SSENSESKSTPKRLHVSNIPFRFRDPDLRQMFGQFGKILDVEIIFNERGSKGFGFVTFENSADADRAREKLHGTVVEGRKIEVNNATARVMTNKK
Sequence	RBNS enrichment (R)
AUAAUAUUGCUUUCAAAAAGAAAUGGUAGACAAAACUAUAAUCCAGCAUCUUUUAUUGCAUUGGAAAGACUGGCAAAGUCUUUUGGAUGGGUUGGGAGAUGUGGCUGGAA	0.364
ACAUUUUAUUACAAAAUGUAGAAAUGCUAGCCCAUCUCCCCCUGCCCUAUACAUUUGCUCUUCCUAUAUAAGUUGGUGAACUUUCCUAUAUAACAACAUAGAAUAACAAC	0.506
GUGGAGGGACUGGCACCGGUUAACUCCUGGUAGGUGCCAAAGCCAUGGGCAUACCAAGCCAGAGCCCCAGGGAUAAGCUGGGGGGUCUUGUGGCCUUUAGGACAGUGCUU	0.5
AUUUCUUGGUCAUUUCUCAACCUGAGGUGCAUAGCAUAUUCCCACAUUCCAUUUUGGUAGCAAUAUGCAGUCCGAAUGCAUGCAUUCAUAAGUCCAUUUGGCCAAGUCAG	1.06
AAUAGACUGUCUCAUCAACCCUCCUGUGUCCUCUGAAGCAAUCUCAGUUUUUAUUAACCACCUCUUCUGUGUUUCUGGUAGCUAUUUAACCUGUAUUUAAUCUGUACUUC	0.553
GCACGGCUCUGCAGGCGUUGAAUAUUUAAAAGCAUCUAUCUAAGAAAGGCUGUGUAGUAGAACCAGAGGCGCCUUCUUGCUCUUGUUUUAUGAUCAGGGUGGAAUGUGCC	0.892
UUCUGCCGGCAGAUAUGUUUCAAGACGCUGUAAACCUCUGAAGGAAUUUAUGCUUUCUCAAGAUGUUGAACAUGAGCGUCUCUUUGACCUCAUUCAGAAAAUGUUGGAGU	0.372
GGUGGCCUCCAUGGCACCCACUCUCCCAGUUCCUAUGCAGGUUAUCCCCUGUGGUUUCUCCCCACAUGCCUACCCUACCUAGGGCUGAGGGGGAGGGGCUCUUGCUUUAA	0.598
GGUGUCACGGCACACAUUUACUCUGCAUUGUCCCCGUCUUUCCCAUCGCCUAGCGUUUGGGGAGGAACAGGGAGAGAGCUUCGGGGCGUCUGUCUCCGUGCUCUCCUGCC	0.189
UGUGAGAAUGUUUUCAAAAAGCCAAAUAAAGUCACAGAUAUUUUAGCUUCUUUCCCAGAAUAAACUUAUCAUGCAUUUGCUUACCUAAAAUUUAAGUUUCAAAUUAGUUC	2.19

Series 3
Target: Interferon regulatory factor 7, full length, phosphomimetic (IRF7, Homo sapiens, UniProt Q92985, residues 1-503, S471D/S472D/S475D/S476D/S477D/S483D/S484D/S487D)
Method: protein-binding microarray
Form: double-stranded DNA, one strand shown
Medium: in vitro
Tested at: 2200 nM top
Setting: 60-bp whole probe
Added: salmon DNA 0.4 mg/ml
Reference: random background probes
Direction: higher = stronger binding
Constant ends, left off below: GCCTAGCAC … GTCTTGATTCGCTTGACGCTGCTG
Residues (chain): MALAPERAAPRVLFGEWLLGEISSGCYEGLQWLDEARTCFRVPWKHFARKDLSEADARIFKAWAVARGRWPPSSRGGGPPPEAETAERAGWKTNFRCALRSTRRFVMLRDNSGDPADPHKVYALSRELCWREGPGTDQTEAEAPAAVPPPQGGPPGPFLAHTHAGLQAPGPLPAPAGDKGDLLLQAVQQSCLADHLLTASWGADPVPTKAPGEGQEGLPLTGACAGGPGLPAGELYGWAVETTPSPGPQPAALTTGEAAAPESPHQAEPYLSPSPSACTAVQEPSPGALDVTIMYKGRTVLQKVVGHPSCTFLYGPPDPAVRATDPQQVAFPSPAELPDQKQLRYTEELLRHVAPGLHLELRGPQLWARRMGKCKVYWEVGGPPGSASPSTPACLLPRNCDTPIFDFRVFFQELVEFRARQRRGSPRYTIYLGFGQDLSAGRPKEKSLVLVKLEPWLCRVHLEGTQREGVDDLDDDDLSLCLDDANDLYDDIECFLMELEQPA
Sequence	fitted relative affinity [z-score]
TTAGATTTCAGTTTCGATCAGTGCTAG	5.31
GACGACATCAGACTGGAGACGTGCTAG	-0.0822
GACGATTTCGGGACAGGAGACGTGCTA	1.54
GACGAAATGAGACTGGAGACGTGCTAG	-0.0994
CATTTTCTCTGTTCTAGAAGGTGCTAG	2.7
GACGGTATCCTTTTCCGGACGTGCTAG	1.17
GACGATATGAGTATCGAGACGTGCTAG	0.329
GACGATTTCAGAATGGAGACGTGCTAG	0.356
GTAGGACTGGGTATCGGTTAGTGCTAG	-0.495
GTGTACATCTCTCTTAAATAGTGCTAG	1.28

Further values, each from its own experiment
Molecule	target	assay	test system	conditions	how to read	quantity	result
PhoQ, residues 284 288 289 292 302 303 TSTLRA	PhoP, residues 12 14 15 18 19 MHTVL (Escherichia coli, UniProt P23836)	Sort-seq, item: YFP reporter	E. coli	PhoQ-PhoP variant library, added: 10 µM Mg2+	reference: high Mg2+ state, higher = stronger signaling	fold induction	1.93

For quick reference, copied from above (series 3):
Sequence	fitted relative affinity [z-score]
TTAGATTTCAGTTTCGATCAGTGCTAG	5.31
GACGACATCAGACTGGAGACGTGCTAG	-0.0822
GACGATTTCGGGACAGGAGACGTGCTA	1.54
